Published values pooled from the literature.
Each line is one published result; not all experiments were run side by side. Values joined by “and” are separate records of one study, mostly repeats; a detail may differ. ± gives the spread as reported.

Structure (SMILES) | test | test system | conditions | scale | endpoint | result
N#Cc1ccc2c(c1)[C@H]1CCCN(C(=O)c3ccc4[nH]cnc4c3)[C@H]1C2 |  | human, female | 360 mg, day 7 |  | androstenedione level | 5.4 nmol/L
C[C@H]1C[C@@H](N2C(=N)N[C@](C)(c3cccc(NC(=O)c4cccc(C#N)c4)c3Cl)CC2=O)CCO1 |  |  | 289 to 302 nm |  | average molar extinction coefficient | > 1000 L/mol/cm
COc1ccc([C@@H](O)c2cc(-c3ncnc4cc(N5CCOCC5)ccc34)c(F)cc2Cl)nn1 |  | locally advanced rectal cancer | all dose levels overall, with: capecitabine and radiotherapy |  | TEAE, rectal haemorrhage | 26%
CNC(=O)c1ccc(-c2cnc3ncc(Cc4ccc5ncccc5c4)n3n2)cc1F | CTCAE v4.0, any causality | human cancer patients | oral, dose not given, dose escalation |  | decreased appetite incidence (all grades) | 42%
CCCCOc1nc(N)c2c(n1)N(Cc1cccc(CN3CCCC3)c1)CC(=O)N2 |  | human | oral, 2 mg, drug interaction trial |  | any TEAE | 13.3%
CCOC(=O)N1C[C@@H](c2ccc(C(C)(C)C)cc2)N[C@@H](C(CC)CC)C1 | shake-flask, LC-HRMS | aqueous buffer | 16 h, pH 6.8 |  | solubility | < 4 µM
O=C(CSc1nnc(-c2ccncc2)o1)Nc1ccc(F)cc1 |  | aqueous buffer | pH 7.4 |  | solubility | 0.0532 mg/mL
[18F]c1ccc(-c2ccc3c(c2)[nH]c2ccncc23)cn1 | ex vivo biodistribution | APP/PS1 mouse, AD model, feces | intravenous, 30 min |  | SUV | 0.471 ± 0.105
Cc1cc(NC2CCN(C(=O)OC3CCN(C(=O)/C=C/CN(C)C)C3)CC2)n2ncc(C(C)C)c2n1 (stereo not drawn) | Phase I dose escalation CTCAE v4.0, refers to: dermatitis acneiform | patients with advanced solid tumours | dose not given, QD dosing any grade |  | patients with adverse event | 12%
CCN1CCN(Cc2ccc(NC(=O)c3ccc(C)c(NC(=O)c4cncc(-c5cccs5)c4)c3)cc2C(F)(F)F)CC1 | LC-MS/MS | C57BL/6 mouse, plasma | intraperitoneal, 20 mg/kg single dose, 2 h |  | mean plasma concentration | 0.31 µg/mL
CCCCC/C=C\C/C=C\CCCCCCCC(=O)O.Cc1cc(/C=C/C#N)cc(C)c1Nc1ccnc(Nc2ccc(C#N)cc2)n1 |  | aqueous buffer | pH 1.2 |  | equilibrium solubility | 0.01463 ± 0.00013 mg/mL
CC(C)Oc1ccc2cc(C(=N)N)ccc2c1 |  | aqueous buffer | pH 7.4 |  | solubility | 2.5 mg/mL
O=c1[nH]c(=O)n([C@@H]2O[C@H](CO)[C@@H](O)[C@@H]2F)cc1CCC[18F] |  | nude mice, RG2 tumour, liver | intravenous, dose not given, 2 h |  | biodistribution | 0.21 ± 0.14 %ID/g
Cn1cc([C@H]2C[C@H]3CSC(N)=N[C@@]3(c3ccc(F)cc3F)CO2)cn1 |  | mouse | subcutaneous, 10 mg/kg, 18 h |  | plasma concentration | not detected
CCc1nc(C(N)=O)c(Nc2ccc(N3CCC(N4CCN(C)CC4)CC3)c(OC)c2)nc1NC1CCOCC1 |  | Japanese patients, plasma | oral, 20 mg, cycle 1 day 28, multiple doses, mean |  | Cmax | 0.0705 µg/mL
COC(=O)N[C@@H](C)CNc1nccc(-c2cn(C(C)C)nc2-c2cc(Cl)cc(NS(C)(=O)=O)c2F)n1 |  | human, plasma | oral, 50 mg, single dose, geometric mean, with: diltiazem | relative to: compound alone | Cmax increase | ~45% and 44.7%
CCOC(=O)N1C[C@@H](c2ccc(Cl)cc2)N[C@@H](c2ccc(C(=O)OC)cc2)C1 | shake-flask, LC-HRMS | aqueous buffer | 16 h, pH 6.8 |  | solubility | < 4 µM
O=C(O)c1cccc(C(=O)O)c1 |  | Bet/PG deep eutectic solvent | 303.0 K |  | apparent dissolution enthalpy | 64 kJ/mol
N[C@@H]1c2ccccc2OC12CCN(c1cnc3c(N4CCCc5ncccc54)n[nH]c3n1)CC2 |  | advanced metastatic solid tumour patients, plasma | oral, 60 mg once daily, cycle 1 day 15, geometric mean |  | AUC(0-tau) | 7.34 µg·h/mL
CCCCOc1ccc([C@H]2CC[C@H](CCC)CC2)c(F)c1F |  | rat, placenta | 5000 ng/mL in perfusate, high dose, mixture of 21 LCMs |  | placental accumulation | 395 ± 539 ng/g
C=CCN1CC(=O)N2[C@@H](Cc3ccc(O)cc3F)C(=O)N(Cc3cccc(N4CC(N5CCN(CC)CC5)C4)n3)C[C@@H]2N1C(=O)NCc1ccccc1 | refers to: Vomiting | advanced solid tumour patients | oral, 120 mg twice daily, expansion part, any grade |  | treatment-related adverse events | 90%

Structure (SMILES) | test | test system | conditions | scale | endpoint | result
O=C(Nc1nc2cccc(-c3ccc(CN4CCS(=O)(=O)CC4)cc3)n2n1)C1CC1 | refers to: dysgeusia | human rheumatoid arthritis patients | oral, 300 mg once daily, 4 weeks, regardless of relatedness |  | treatment-emergent adverse events | 10%
C[C@@H](N)C1CCN(S(=O)(=O)c2cccc3cnccc23)CC1 | refers to: Syncope | healthy volunteers | 150 mg, fed |  | TEAE incidence | 0%
C[C@H]1OC[C@H](C2CCCC2)N[C@@H]1c1cccc(Cl)c1 | shake-flask, LC-HRMS | aqueous buffer | 16 h, pH 6.8 |  | solubility | < 4 µM
Cc1cccc(CNC(=O)c2cn(CCNC(=O)c3ccccc3S)c3cc4c(cc3c2=O)OC(F)(F)O4)n1 |  | Sprague-Dawley rat, male, plasma | intravenous, 5 mg/kg of parent compound |  | MRT(0-inf) | 37.8 ± 6 min
CCN1/C(=C/C(C)=O)Sc2ccc(F)cc21 |  | cynomolgus monkey | oral, 10 mg/kg, 1 h post-dose |  | QTc interval (Bazett) | 327 ± 8 ms
O=c1[nH]c(=O)n([C@@H]2O[C@H](CO)[C@@H](O)[C@@H]2F)cc1CCCCC[18F] |  | nude mice, RG2 tumour, kidney | intravenous, dose not given, 2 h |  | biodistribution | 0.36 ± 0.06 %ID/g
C[C@@]1(C2CCCCC2)COC[C@@H](c2ccc(F)cc2Cl)N1 | shake-flask, LC-HRMS | aqueous buffer | 16 h, pH 6.8 |  | solubility | < 4 µM
NC/C(=C\F)COc1cccc(Cn2c(=S)[nH]c(=O)c3[nH]cnc32)c1 |  | C57BL/6J mice, lung | oral, 15 mg/kg single, 1 h |  | concentration | 0.398 µg/mL
CNCCOC12CC3(C)CC(C)(CC(Cn4ncc(-c5ccc(N6CCc7cccc(C(=O)Nc8nc9ccccc9s8)c7C6)nc5C(=O)O)c4C)(C3)C1)C2 |  | beagle dog, male, anaesthetised | intravenous bolus, 0.03 mg/kg, 90 min | relative to: baseline | dP/dt at 50 change | -5%
CC(C)(C(=O)N1CCOc2c(C#N)cncc2C1)C(F)F |  | human, both sexes | oral, 30 mg single dose |  | subjects with presyncope TEAE | 0%
CCc1cc2c(cc1N1CCC(N3CCOCC3)CC1)C(C)(C)c1[nH]c3cc(C#N)ccc3c1C2=O |  | ALK inhibitor-naive patients | oral, 300 mg twice daily, week 6 |  | average plasma concentration | 936 nM
O=C(O)CCC(=O)O.[2H]C([2H])([2H])Oc1cc(C)c2[nH]ccc2c1CN1CC[C@@H](C2CC2)C[C@H]1c1ccc(C(=O)O)cc1 | multiple ascending dose | healthy Chinese subjects | 300 mg once daily |  | subjects with TEAE Diarrhea | 0%
Cc1cccc([C@H]2N[C@@H](c3ccc(Cl)c(Cl)c3)CO[C@@H]2C)c1 | shake-flask, LC-HRMS | aqueous buffer | 16 h, pH 6.8 |  | solubility | < 4 µM
C[C@H](CCC(=O)NCCS(=O)(=O)O)[C@H]1CC[C@H]2[C@@H]3[C@H](O)C[C@@H]4C[C@H](O)CC[C@]4(C)[C@H]3C[C@H](O)[C@]12C |  | human, plasma | control |  | Cmin | 0.00759 ± 0.00028 µM
CCCCc1ccc(C#Cc2ccc(OCC)cc2)cc1 |  | rat, placenta | 10 ng/mL in perfusate, low dose, mixture of 21 LCMs |  | placental accumulation | 1.34 ± 1.82 ng/g
CCOc1c([C@H](C)n2nc(C)c3c(N)ncnc32)cc(Cl)c(F)c1[C@@H]1CNC(=O)C1 |  | human patients, all cohorts, plasma | oral, 20 mg, day 15, monotherapy, geometric mean |  | Cmin | 0.214 µM
O=C(N/N=C/c1ccccc1O)c1ccncc1 |  | DMEM cell medium | 57 µM, 7 days, -80 °C, long-term storage |  | stability | 97.9%
COc1ccccc1NC(=O)CSc1nnc(-c2ccccc2Cl)n1-c1ccccc1 |  | aqueous buffer | pH 7.4 |  | solubility | < 0.00322 mg/mL
CC(C)Cc1ccc(C(C)C(=O)O)cc1 (stereo not drawn) |  | human | 600 mg, estimated from rat brain/serum ratio |  | brain concentration | 1 to 3 µM
C[C@H]1OC[C@H](c2cnn(C)c2)N[C@@H]1c1ccc(F)cc1Cl | shake-flask, LC-HRMS | aqueous buffer | 16 h, pH 6.8 |  | solubility | > 750 µM
NC1(C(=O)N[C@@H](CCO)c2ccc(Cl)cc2)CCN(c2nc[nH]c3nccc2-3)CC1 |  | metastatic CRPC patients | 400 mg b.i.d., any grade, treatment-related, with: enzalutamide 160 mg daily |  | incidence of Dysgeusia | 0%

A few entries again:
Structure (SMILES) | test | test system | conditions | scale | endpoint | result
CCN1/C(=C/C(C)=O)Sc2ccc(F)cc21 |  | cynomolgus monkey | oral, 10 mg/kg, 1 h post-dose |  | QTc interval (Bazett) | 327 ± 8 ms
COc1ccc([C@@H](O)c2cc(-c3ncnc4cc(N5CCOCC5)ccc34)c(F)cc2Cl)nn1 |  | locally advanced rectal cancer | all dose levels overall, with: capecitabine and radiotherapy |  | TEAE, rectal haemorrhage | 26%
NC1(C(=O)N[C@@H](CCO)c2ccc(Cl)cc2)CCN(c2nc[nH]c3nccc2-3)CC1 |  | metastatic CRPC patients | 400 mg b.i.d., any grade, treatment-related, with: enzalutamide 160 mg daily |  | incidence of Dysgeusia | 0%
